Measurements pooled from the literature.
Each numbered part is a random draw from the data of one study; scales do not carry over between parts. Substitutions count along the parent as printed.

Set 1 — target: CCNA1, cyclin fold, Cln2 fusion (human); method: yeast growth competition, sequencing; sample: yeast; setting: weak parent motif; relative to: not given; direction: higher = stronger binding; quantity: normalised enrichment score
Parent: INSM1 docking peptide (human); PKAIRKLHFEDEV
PKAIRKLHFEDWV [E12W]: 0.395
PAAIRKLHFEDEV [K2A]: 0.272
PKAVRKLHFEDEV [I4V]: 0.42
PKCIRKLHFEDEV [A3C]: 1.25
PKAIRKTHFEDEV [L7T]: 0.211
PKAIRKLHFEDFV [E12F]: 0.87
PKAIRKLWFEDEV [H8W]: 0.137
PKAARKLHFEDEV [I4A]: 1.19
PKAIRKLRFEDEV [H8R]: 0.412
PKAIRKNHFEDEV [L7N]: 0.172
PKAIRKQHFEDEV [L7Q]: -0.282
PIAIRKLHFEDEV [K2I]: 0.0421
PKAIRVLHFEDEV [K6V]: 0.0869
PKAIRKLHFESEV [D11S]: 0.614
PKAIRKLHLEDEV [F9L]: 0.047
PKAIRKLAFEDEV [H8A]: 0.463
PHAIRKLHFEDEV [K2H]: 0.408
PKAIKKLHFEDEV [R5K]: 0.585
PKAIRKLLFEDEV [H8L]: 0.527
PKAIRKLIFEDEV [H8I]: 0.655
PKAYRKLHFEDEV [I4Y]: 0.586
PKAIRKLHFEDYV [E12Y]: 0.247
PKAIRKLHFEKEV [D11K]: 0.666
PKTIRKLHFEDEV [A3T]: 0.307
PKAIRKWHFEDEV [L7W]: -0.0515

Set 2 — method: protein binding microarray; form: double-stranded DNA, one strand shown; sample: in vitro; tested at: not given; relative to: not given; direction: higher = stronger binding; quantity: E-score
Target: Histone acetyltransferase KAT6A, winged helix 2, GST fusion (KAT6A, Homo sapiens, UniProt Q92794, residues 85-181)
Setting: 8-mer, flanks averaged, mean of 2 arrays, mostly near background
Residues (chain): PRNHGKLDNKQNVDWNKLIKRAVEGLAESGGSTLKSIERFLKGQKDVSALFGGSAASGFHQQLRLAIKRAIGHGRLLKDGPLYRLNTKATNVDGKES
ACGGGCCC: 0.0498
ACCAGGTG: -0.0751
AGCTCGAG: 0.0224
AACGCACT: 0.0564
GAAGAATA: -0.0352
ACCAACGA: -0.0633
CTTAAGTC: -0.136
ATATACTG: -0.00364
AGTATGCC: 0.00874
GATTTAGC: 0.0338
GCCTTGAC: 0.0419
CTTGATGC: 0.0903
CGTATGGC: 0.0961
GAGGGTTA: -0.182
AACAAATC: 0.0473
ACCACGCT: -0.105
CATAGTCC: -0.0603
CATAGTAA: 0.0242
AGCTGTAT: -0.206
ACGAACCA: 0.086

Set 3 — method: DHFR PCA, deep sequencing; sample: yeast; together with: (+)-ABA 0.39 µM; relative to: wild-type fitted maximum; direction: higher = stronger binding; quantity: relative binding score
Target: ABI1, truncated, D143A, DHFR fusion (Arabidopsis thaliana)
Setting: methotrexate growth selection, single substitutions
Parent: PYL1, truncated, DHFR fusion (Arabidopsis thaliana); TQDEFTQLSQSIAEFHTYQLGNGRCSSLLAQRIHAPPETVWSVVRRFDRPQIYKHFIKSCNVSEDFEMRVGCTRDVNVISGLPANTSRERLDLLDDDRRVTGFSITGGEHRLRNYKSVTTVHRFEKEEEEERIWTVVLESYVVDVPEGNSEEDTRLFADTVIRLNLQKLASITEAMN
V40F: -18.8%
S63A: 63.3%
F15P: -5.41%
R98T: 0.0788%
R88N: 22.4%
Q10C: 24.9%
D97R: 32.6%
C72E: 34.1%
A13I: 17.8%
D48C: 2.18%
E127C: 46%
M68I: 49.3%

Further values, each from its own experiment
PhoQ, residues 284 288 289 292 302 303 SSCLAV  fold induction (PhoP, residues 12 14 15 18 19 VQALL (Escherichia coli, UniProt P23836); Sort-seq, refers to: YFP reporter; E. coli; PhoQ-PhoP variant library, together with: 10 µM Mg2+; relative to: high Mg2+ state, higher = stronger signaling): 8.66

Some of these lines once more (set 1):
PKAIRKLWFEDEV [H8W]: 0.137
PKAIRKLLFEDEV [H8L]: 0.527
PKAYRKLHFEDEV [I4Y]: 0.586
PKAARKLHFEDEV [I4A]: 1.19
PHAIRKLHFEDEV [K2H]: 0.408
